Results pooled from the literature.
Every numbered part comes from another study and shows a few of its results, in no order.

Study 1
Target: Histone acetyltransferase KAT6A, both winged helices, GST fusion (KAT6A, Homo sapiens, UniProt Q92794, residues 1-181)
Method: protein binding microarray
Molecule type: double-stranded DNA, one strand shown
Matrix: in vitro
Concentration: not given
Setting: 8-mer, flanks averaged, mean of 2 arrays, mostly near background
Baseline: not given
Direction: higher = stronger binding
Residues (chain): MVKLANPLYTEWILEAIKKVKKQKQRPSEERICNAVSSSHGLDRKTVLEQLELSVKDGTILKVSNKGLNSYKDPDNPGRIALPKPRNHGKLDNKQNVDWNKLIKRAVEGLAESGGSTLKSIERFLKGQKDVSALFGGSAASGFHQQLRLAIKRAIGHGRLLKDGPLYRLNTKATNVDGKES
For `GGCCAAGA`, the E-score was -0.118.
With `CAGGCTCG` the E-score was 0.2.
For `AGTATGAC`, the E-score was -0.153.
For `GGCAGACC`, the E-score was 0.0215.
With `GCATACGC` the E-score was 0.172.

Study 2
Target: Interferon regulatory factor 5, full length, phosphomimetic (IRF5, Homo sapiens, UniProt Q13568-2, residues 1-514, K96S/S451D/S453D/S456D/S462D)
Method: protein-binding microarray
Molecule type: double-stranded DNA, one strand shown
Matrix: in vitro
Concentration: 250 nM
Setting: 60-bp whole probe
Together with: salmon DNA 0.4 mg/ml
Baseline: random background probes
Direction: higher = stronger binding
All sequences stand within: GCCTAGCAC … GTCTTGATTCGCTTGACGCTGCTG
For `TTAGATTTCGGGTTTCGCTTAGTGCTA`, the log fluorescence was 6.61 z-score.
For `GACGGTATAGACTTTCGGGACGTGCTA`, the log fluorescence was 4.31 z-score.
`GACAGTTTCGGGTATCGGGACGTGCTA` has a log fluorescence of 9.95 z-score.
For `TTAAGACTGCTTATCCTTTAGTGCTAG`, the log fluorescence was 0.146 z-score.
`TTAGAACTGGGTTTTCGATTAGTGCTA` has a log fluorescence of 3.47 z-score.

Other studies, line by line
G3BP1 full length: Ras GTPase-activating protein-binding protein 1, full length (G3BP1, Homo sapiens, UniProt Q13283)
UniProt Q13283, sequence (whole entry, looked up): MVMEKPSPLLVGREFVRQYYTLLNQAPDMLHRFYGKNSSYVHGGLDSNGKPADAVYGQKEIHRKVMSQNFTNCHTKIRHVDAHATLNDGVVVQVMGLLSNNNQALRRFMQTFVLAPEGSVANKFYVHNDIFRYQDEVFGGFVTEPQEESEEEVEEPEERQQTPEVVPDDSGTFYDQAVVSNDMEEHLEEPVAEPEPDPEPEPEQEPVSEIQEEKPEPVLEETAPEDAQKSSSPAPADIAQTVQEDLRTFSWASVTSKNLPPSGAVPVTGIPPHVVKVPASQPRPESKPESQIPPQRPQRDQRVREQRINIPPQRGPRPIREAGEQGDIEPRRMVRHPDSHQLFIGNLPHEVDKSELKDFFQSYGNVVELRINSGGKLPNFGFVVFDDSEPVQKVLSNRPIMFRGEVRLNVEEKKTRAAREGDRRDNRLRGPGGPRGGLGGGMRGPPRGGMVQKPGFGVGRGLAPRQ
`GGGAGUUCUACAGUCCGACGAUCAGUCCUGUGCUACACAUCGUAUGUACCGAAUCGGGGUUUUUGGUUUUUGGGUUUUUGGAAAGUAUUAUGUUACGCCGUUCGGAUCUGCACUGGAAUUCUCGGGUGUCAAGG (7-deaza-guanosine replaces G)` has a log2 enrichment of -0.179 (G3BP1 full length; RNA Bind-n-Seq; RNA, in vitro; 200 nM, whole 134-nt RNA, ends assumed, together with: 150 mM LiCl; baseline: input library, higher = stronger binding).
The fold induction of `PhoQ, residues 284 288 289 292 302 303 TVTVVA` is reported as 20.3 (PhoP, residues 12 14 15 18 19 TQAML (Escherichia coli, UniProt P23836); Sort-seq, item: YFP reporter; E. coli; PhoQ-PhoP variant library, together with: 10 µM Mg2+; baseline: high Mg2+ state, higher = stronger signaling).
With `GGGAGUUCUACAGUCCGACGAUCUCCUGUGCUACACAUCGUAUGUACCGAAUCGGGUUUUUUUGGGUUUUUUUGGGUUUGGGAAAGUAUUAUGUUACGCCGUUCGGAUCUGCAUGGAAUUCUCGGGUGUCAAGG (7-deaza-guanosine replaces G)` the log2 enrichment was 1.37 (G3BP1 full length; RNA Bind-n-Seq; RNA, in vitro; 200 nM, whole 134-nt RNA, ends assumed, together with: 150 mM LiCl; baseline: input library, higher = stronger binding).

For quick reference, copied from above (other studies, line by line):
With `GGGAGUUCUACAGUCCGACGAUCUCCUGUGCUACACAUCGUAUGUACCGAAUCGGGUUUUUUUGGGUUUUUUUGGGUUUGGGAAAGUAUUAUGUUACGCCGUUCGGAUCUGCAUGGAAUUCUCGGGUGUCAAGG (7-deaza-guanosine replaces G)` the log2 enrichment was 1.37 (G3BP1 full length; RNA Bind-n-Seq; RNA, in vitro; 200 nM, whole 134-nt RNA, ends assumed, together with: 150 mM LiCl; baseline: input library, higher = stronger binding).
